# Measured values gathered from unrelated publications.
# Numbered parts are unrelated; each lists some results of a single study. Changes are numbered by the printed parent chain.

# Sample 1 — method: universal PBM; molecule type: double-stranded DNA, one strand shown; matrix: in vitro; tested at: not given; direction: higher = stronger binding
# Target: Sal-like protein 4, full length isoform B (SALL4, Homo sapiens, UniProt Q9UJQ4-2, residues 1-616)
# Setting: 8-mer, flanks averaged, mean of replicates
Oligonucleotide,E-score
TAAGATGA,0.108
CGAACCGC,-0.333
AAGCCTCT,-0.0223
GGTTGTAA,0.19
AGGCGTAG,-0.143
GTTGGTCA,0.0533
AGCATCGG,-0.182
ACCGCTCG,-0.256

# Sample 2 — target: CCND2, cyclin fold, Cln2 fusion (human); method: yeast growth competition, sequencing; matrix: yeast; setting: weak parent motif; reference: not given; direction: higher = stronger binding
# Starting sequence: SCAPER docking peptide (human); SNARRSLNFGGST
Variant,normalised enrichment score
SKARRSLNFGGST [N2K],0.477
YNARRSLNFGGST [S1Y],0.755
SNARRSLLFGGST [N8L],-0.0611
SNARRSLNFGGSV [T13V],0.592
SNARRSCNFGGST [L7C],0.26
SNSRRSLNFGGST [A3S],0.584
SNARRSLAFGGST [N8A],0.13

# Sample 3 — method: protein binding microarray; molecule type: double-stranded DNA, one strand shown; matrix: in vitro; tested at: not given; reference: not given; direction: higher = stronger binding
# Target: Histone acetyltransferase KAT6A, winged helix 1, GST fusion (KAT6A, Homo sapiens, UniProt Q92794, residues 1-85)
# Setting: 8-mer, flanks averaged, mean of 2 arrays, mostly near background
# Residues (chain): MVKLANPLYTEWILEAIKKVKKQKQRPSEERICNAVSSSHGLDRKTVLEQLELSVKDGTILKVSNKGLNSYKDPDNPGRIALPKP
Oligonucleotide,E-score
AGTGTATC,-0.226
CAATTCGC,0.0273
ATATGTGC,0.129
ATGTGCTC,-0.092
GGACCGGA,0.126
CACGTCAC,-0.111

# Single results of other studies
Substance,target,assay,system,conditions,scale,endpoint,result
"PhoQ, residues 284 288 289 292 302 303 SIHMAM","PhoP, residues 12 14 15 18 19 SEGLL (Escherichia coli, UniProt P23836)","Sort-seq, item: YFP reporter",E. coli,"PhoQ-PhoP variant library, with: 10 µM Mg2+","reference: high Mg2+ state, higher = stronger signaling",fold induction,5.87
